Measured values collected from several papers.
Protocols differ between the studies behind these lines.
Target: Serine/threonine-protein kinase MRCK gamma (CDC42BPG, Homo sapiens, UniProt Q6DT37)
Chain of UniProt Q6DT37 (whole entry, looked up): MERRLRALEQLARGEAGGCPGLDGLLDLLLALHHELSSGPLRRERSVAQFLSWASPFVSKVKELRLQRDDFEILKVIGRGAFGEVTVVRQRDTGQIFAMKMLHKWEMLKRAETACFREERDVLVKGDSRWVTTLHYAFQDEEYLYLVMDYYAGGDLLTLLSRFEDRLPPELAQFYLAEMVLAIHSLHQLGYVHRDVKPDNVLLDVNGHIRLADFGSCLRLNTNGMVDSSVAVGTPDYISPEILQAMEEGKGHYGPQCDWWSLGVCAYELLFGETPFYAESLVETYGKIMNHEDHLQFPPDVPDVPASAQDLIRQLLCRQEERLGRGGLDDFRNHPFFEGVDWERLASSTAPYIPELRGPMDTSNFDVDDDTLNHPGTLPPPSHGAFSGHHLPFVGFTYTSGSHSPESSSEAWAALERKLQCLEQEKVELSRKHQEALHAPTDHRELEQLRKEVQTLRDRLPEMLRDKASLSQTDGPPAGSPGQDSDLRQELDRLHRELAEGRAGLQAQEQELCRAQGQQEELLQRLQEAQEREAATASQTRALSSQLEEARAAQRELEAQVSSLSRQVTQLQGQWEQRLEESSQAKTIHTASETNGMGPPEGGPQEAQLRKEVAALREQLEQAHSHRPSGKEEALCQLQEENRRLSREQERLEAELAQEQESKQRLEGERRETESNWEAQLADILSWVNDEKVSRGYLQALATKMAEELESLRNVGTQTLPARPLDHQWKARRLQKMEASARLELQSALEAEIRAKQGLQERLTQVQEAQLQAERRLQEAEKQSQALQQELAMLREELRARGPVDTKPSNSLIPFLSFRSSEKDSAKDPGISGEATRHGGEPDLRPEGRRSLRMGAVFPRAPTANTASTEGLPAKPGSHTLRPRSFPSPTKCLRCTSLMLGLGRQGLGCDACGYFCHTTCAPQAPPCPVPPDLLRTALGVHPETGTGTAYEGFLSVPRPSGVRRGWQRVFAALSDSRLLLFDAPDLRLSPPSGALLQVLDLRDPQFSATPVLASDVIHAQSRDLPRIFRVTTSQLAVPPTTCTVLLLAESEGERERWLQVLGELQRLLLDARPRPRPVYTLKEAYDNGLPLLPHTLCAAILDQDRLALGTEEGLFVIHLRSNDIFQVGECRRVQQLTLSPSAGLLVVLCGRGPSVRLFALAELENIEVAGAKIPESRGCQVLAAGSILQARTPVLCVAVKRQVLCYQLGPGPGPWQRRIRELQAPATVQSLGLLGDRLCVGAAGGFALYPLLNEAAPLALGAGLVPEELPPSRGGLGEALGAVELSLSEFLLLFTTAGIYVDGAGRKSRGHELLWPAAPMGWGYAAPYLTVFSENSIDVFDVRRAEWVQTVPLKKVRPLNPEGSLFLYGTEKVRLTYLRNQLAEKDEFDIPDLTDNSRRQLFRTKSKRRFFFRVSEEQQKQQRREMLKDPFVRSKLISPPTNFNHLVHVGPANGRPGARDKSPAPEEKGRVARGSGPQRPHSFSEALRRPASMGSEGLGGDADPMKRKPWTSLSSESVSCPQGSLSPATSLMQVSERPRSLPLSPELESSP

With `COc1ncc2cc3ccccc3nc2c1C#N` the remaining binding was 97% (KINOMEscan; 5 µM; reference: DMSO).
The remaining activity of `Nc1ncnc2occ(-c3ccc(NC(=O)Nc4cc(C(F)(F)F)ccc4F)cc3)c12` is reported as 1.7% (enzyme activity, inhibitor; 20 µM).
`CC(C)(O)[C@H]1CC[C@H](Nc2ccc3ncc(-c4cccc(C(F)(F)F)c4)n3n2)CC1` gave a remaining activity of 110% (enzyme activity, inhibitor; 1 µM, added: 10 µM ATP; reference: DMSO).
The remaining binding of `Nc1ncc2c(n1)-c1c([nH]c3ccc(C#CC4CC4)cc13)CCCC2` is reported as 89% (scanMAX; 1 µM).
`Cc1cnc(Nc2ccc(C(=O)N3CCC(N4CCCC4)CC3)cc2)nc1-c1cc2ccccc2s1` has a remaining binding of 49% (binding, KINOMEscan competition binding; 1 µM; reference: DMSO control).
For `Cn1c2c(c3ccc(Cl)c(Cl)c31)C(C#N)C1(CCOCC1)NC2=O` (stereo not shown), the ΔTm was -0.9 °C (thermal shift; 10 µM, 2 µM protein; higher = stronger binding).
The remaining binding of `COc1cnc(Nc2cccc(S(N)(=O)=O)c2)nc1N1CCN(c2ccccc2)CC1` is reported as 100% (KINOMEscan; 1 µM).
`O=C(NCCCN1CCOCC1)c1ccc(Nc2nccc(-c3cc4ccccc4s3)n2)cc1` gave a remaining binding of 100% (binding, KINOMEscan competition binding; 1 µM; reference: DMSO control).
`Cn1c2c(Cl)c(Cl)ccc2c2cc(N)[nH]c(=O)c21` gave a ΔTm of -0.6 °C (thermal shift; 10 µM, 2 µM protein; higher = stronger binding).
`O=C(c1ccc(Nc2ncc(Cl)c(-c3cc4ccccc4s3)n2)cc1)N1CCC(N2CCCC2)CC1` has a remaining binding of 43% (binding, KINOMEscan competition binding; 1 µM; reference: DMSO control).
With `Cn1c2c(c3ccc(Cl)c(Cl)c31)C(C#N)C(C)(C)NC2=O` (stereo not shown) the ΔTm was -1.2 °C (thermal shift; 10 µM, 2 µM protein; higher = stronger binding).
`c1cncc(-c2cccc(Nc3nccc(NC4CCCCC4)n3)c2)c1` has a remaining binding of 100% (KINOMEscan; 10 µM).
With `CC1(C)NC(=O)c2[nH]c3c(Cl)c(Cl)ccc3c2C1C#N` (stereo not shown) the ΔTm was -0.7 °C (thermal shift; 10 µM, 2 µM protein; higher = stronger binding).
With `C=CC(=O)N1CCC(COCC(=O)N2CCN(c3nc(-c4cnc(N)nc4C(F)F)nc(N4CCOC[C@@H]4C)n3)CC2)CC1` the remaining binding was 100% (KINOMEscan; 1 µM).
`C=CC(=O)N1CCC(C(=O)NCC(=O)N2CCN(c3nc(-c4cnc(N)nc4C(F)F)nc(N4CCOCC4)n3)CC2)CC1` gave a remaining binding of 100% (KINOMEscan; 1 µM).
`O=C(NCC1CCOCC1)c1n[nH]cc1NC(=O)c1c(F)cccc1F` gave a remaining binding of 98% (scanMAX; 1 µM; reference: untreated).

A few entries again:
The remaining binding of `Nc1ncc2c(n1)-c1c([nH]c3ccc(C#CC4CC4)cc13)CCCC2` is reported as 89% (scanMAX; 1 µM).
`c1cncc(-c2cccc(Nc3nccc(NC4CCCCC4)n3)c2)c1` has a remaining binding of 100% (KINOMEscan; 10 µM).
